Experimental data collected from several papers.
Every numbered part comes from another study and shows a few of its results, in no order. Substitutions count along the parent as printed.

Series 1 — method: protein-binding microarray; form: double-stranded DNA, one strand shown; medium: in vitro; tested at: 2200 nM top; notes: 60-bp whole probe; together with: salmon DNA 0.4 mg/ml; baseline: random background probes; reading: higher = stronger binding; shared flanks, not repeated: GCCTAGCAC … GTCTTGATTCGCTTGACGCTGCTG
Target: Interferon regulatory factor 7, full length, phosphomimetic (IRF7, Homo sapiens, UniProt Q92985, residues 1-503, S471D/S472D/S475D/S476D/S477D/S483D/S484D/S487D)
Construct (chain): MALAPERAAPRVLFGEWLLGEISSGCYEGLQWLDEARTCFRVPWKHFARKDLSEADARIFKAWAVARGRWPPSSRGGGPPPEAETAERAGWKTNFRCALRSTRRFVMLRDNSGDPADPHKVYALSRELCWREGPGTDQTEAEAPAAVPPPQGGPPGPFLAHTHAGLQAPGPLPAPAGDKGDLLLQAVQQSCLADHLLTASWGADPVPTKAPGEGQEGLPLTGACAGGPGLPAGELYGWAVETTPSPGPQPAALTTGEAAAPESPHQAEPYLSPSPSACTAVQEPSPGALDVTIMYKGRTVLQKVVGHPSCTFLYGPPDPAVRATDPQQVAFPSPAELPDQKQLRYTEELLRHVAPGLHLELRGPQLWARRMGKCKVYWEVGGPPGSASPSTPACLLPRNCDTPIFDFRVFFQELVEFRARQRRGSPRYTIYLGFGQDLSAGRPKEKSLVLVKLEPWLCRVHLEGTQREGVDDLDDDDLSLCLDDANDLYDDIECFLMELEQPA
| Oligonucleotide | fitted relative affinity [z-score] |
| --- | --- |
| CACGGTCTCGGTCTCGGGACGTGCTAG | 0.00151 |
| TTCCTTTACTTTCTTTTTTTGTGCTAG | 5.35 |
| GACGGTTCCCTTTTCCTCACGTGCTAG | 2.8 |
| GTGCCTTTATATACCTGAATGTGCTAG | 1.11 |
| TTAGAACTGGGGTATCGATTCGTGCTA | 0.525 |
| TTAGATATCGTGTATCGATTAGTGCTA | 0.0748 |
| TTAGGTTCCGGTTTCGGTTTGTGCTAG | 14.1 |
| TTAGATTTCAGTTTCGACTAGTGCTAG | 5.11 |

Series 2 — method: protein binding microarray; form: double-stranded DNA, one strand shown; medium: in vitro; tested at: not given; baseline: not given; reading: higher = stronger binding
Target: Histone acetyltransferase KAT6A, both winged helices, GST fusion (KAT6A, Homo sapiens, UniProt Q92794, residues 1-181)
Notes: 8-mer, flanks averaged, mean of 2 arrays, mostly near background
Target sequence (chain): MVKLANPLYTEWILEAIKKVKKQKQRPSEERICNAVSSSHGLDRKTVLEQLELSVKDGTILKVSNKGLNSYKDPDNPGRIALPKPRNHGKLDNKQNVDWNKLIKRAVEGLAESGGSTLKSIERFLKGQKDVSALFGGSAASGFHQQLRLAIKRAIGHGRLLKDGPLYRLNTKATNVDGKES
| Oligonucleotide | E-score |
| --- | --- |
| ATAATAGG | -0.0512 |
| ATAACAGG | -0.132 |
| TATGATAA | -0.0297 |
| ATACAGAG | -0.069 |
| ATGACAGA | -0.115 |
| GGGTTGCA | 0.0449 |
| AAGAAAGG | -0.132 |
| GTGTCTAA | -0.0794 |
| ACCATAAT | -0.0956 |
| ACCAGGTC | -0.0932 |
| CAATGTTC | 0.104 |
| GGCCGCCC | 0.192 |

Series 3 — target: CCNB3, cyclin fold, Cln2 fusion (human); method: yeast growth competition, sequencing; medium: yeast; notes: weak parent motif; baseline: not given; reading: higher = stronger binding
Starting sequence: GMNC docking peptide (human); KNAKRNLSSEFAN
| Substitution | normalised enrichment score |
| --- | --- |
| A12H | 0.0457 |
| F11Q | 0.341 |
| K4R | 0.954 |
| N2D | 0.397 |

Mixed results
| Molecule | target | assay | test system | conditions | scale | endpoint | value |
| --- | --- | --- | --- | --- | --- | --- | --- |
| PhoQ, residues 284 288 289 292 302 303 SSYNSA | PhoP, residues 12 14 15 18 19 AQCLL (Escherichia coli, UniProt P23836) | Sort-seq, refers to: YFP reporter | E. coli | PhoQ-PhoP variant library, together with: 10 µM Mg2+ | baseline: high Mg2+ state, higher = stronger signaling | fold induction | 2.59 |

A few entries again (series 2):
| Oligonucleotide | E-score |
| --- | --- |
| ATGACAGA | -0.115 |
| GGGTTGCA | 0.0449 |
| AAGAAAGG | -0.132 |
| GTGTCTAA | -0.0794 |
